Measurements collected from several papers.
Each numbered part is a random draw from the data of one study; scales do not carry over between parts.
UniProt O23661, sequence (whole entry, looked up): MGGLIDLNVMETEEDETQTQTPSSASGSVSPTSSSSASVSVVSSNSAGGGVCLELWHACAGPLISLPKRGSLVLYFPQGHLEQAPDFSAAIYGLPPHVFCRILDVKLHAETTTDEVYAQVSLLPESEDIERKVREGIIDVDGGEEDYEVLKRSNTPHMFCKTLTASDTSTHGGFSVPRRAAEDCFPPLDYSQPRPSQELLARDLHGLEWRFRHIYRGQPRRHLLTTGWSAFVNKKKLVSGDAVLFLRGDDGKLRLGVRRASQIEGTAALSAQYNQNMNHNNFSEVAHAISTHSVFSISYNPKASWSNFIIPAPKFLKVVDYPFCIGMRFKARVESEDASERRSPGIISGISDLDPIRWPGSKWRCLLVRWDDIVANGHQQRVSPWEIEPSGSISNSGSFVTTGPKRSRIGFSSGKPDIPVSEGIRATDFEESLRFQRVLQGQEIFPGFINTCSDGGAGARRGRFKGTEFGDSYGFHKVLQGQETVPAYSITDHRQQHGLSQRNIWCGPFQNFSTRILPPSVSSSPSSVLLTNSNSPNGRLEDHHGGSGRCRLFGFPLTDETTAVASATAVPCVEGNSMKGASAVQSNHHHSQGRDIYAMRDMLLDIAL
UniProt Q9FGV1, sequence (whole entry, looked up): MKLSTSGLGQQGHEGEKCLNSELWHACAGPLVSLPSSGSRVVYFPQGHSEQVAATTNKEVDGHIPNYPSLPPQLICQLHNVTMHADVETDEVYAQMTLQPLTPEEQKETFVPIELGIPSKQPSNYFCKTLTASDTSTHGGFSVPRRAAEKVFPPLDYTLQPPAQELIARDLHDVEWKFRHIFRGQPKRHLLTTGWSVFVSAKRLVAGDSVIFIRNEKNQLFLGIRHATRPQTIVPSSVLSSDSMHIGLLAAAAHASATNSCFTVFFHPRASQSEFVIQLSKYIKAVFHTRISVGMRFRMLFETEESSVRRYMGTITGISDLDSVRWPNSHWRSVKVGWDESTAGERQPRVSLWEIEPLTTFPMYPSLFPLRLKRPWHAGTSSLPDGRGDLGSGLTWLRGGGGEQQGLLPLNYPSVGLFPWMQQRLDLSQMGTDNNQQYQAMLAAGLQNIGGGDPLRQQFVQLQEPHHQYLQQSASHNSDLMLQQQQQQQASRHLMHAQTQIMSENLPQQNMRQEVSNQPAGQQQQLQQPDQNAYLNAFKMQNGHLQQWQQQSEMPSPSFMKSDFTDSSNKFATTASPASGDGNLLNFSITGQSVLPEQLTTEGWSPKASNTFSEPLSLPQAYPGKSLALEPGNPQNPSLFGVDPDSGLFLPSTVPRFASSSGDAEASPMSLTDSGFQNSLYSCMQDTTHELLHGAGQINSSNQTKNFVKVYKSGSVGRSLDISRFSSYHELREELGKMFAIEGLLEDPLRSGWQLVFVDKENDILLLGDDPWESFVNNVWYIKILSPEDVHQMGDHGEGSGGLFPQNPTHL

Block 1
Target: Centromere-binding protein 1, full length, His-tagged (CBF1, Saccharomyces cerevisiae, UniProt P17106, residues 1-351)
UniProt P17106, sequence (whole entry, looked up): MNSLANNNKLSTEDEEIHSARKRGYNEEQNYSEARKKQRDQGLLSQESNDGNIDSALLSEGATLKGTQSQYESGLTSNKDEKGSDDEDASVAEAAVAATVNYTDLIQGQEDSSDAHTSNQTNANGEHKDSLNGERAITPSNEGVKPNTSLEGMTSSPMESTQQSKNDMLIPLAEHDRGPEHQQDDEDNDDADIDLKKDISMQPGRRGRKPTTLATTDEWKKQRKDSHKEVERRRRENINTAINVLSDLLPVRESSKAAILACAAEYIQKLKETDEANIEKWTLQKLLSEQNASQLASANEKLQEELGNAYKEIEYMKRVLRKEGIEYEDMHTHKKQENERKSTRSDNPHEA
Method: competition protein-binding microarray
Molecule type: double-stranded DNA, one strand shown
Medium: in vitro
Tested at: 2 µM
Notes: whole 60-bp probe, lowest competitor level
Added: Pho4 competitor, 0.05 µM
Reading: higher = stronger binding
Constant ends, left off below: … GTCTTGATTCGCTTGACGCTGCTG
Oligonucleotide | fluorescence intensity [a.u.]
GATTTACAGGCCTGGCACGGCGATTGGCCATTACCT | 51.4
TTGACCCGGAATCTATTCGTGACGGAAAGGTTAAGG | 84.8
AAGAGAAGAAAAAAGCGCGTGGTCGGAGCCGCGCTA | 77.9
GCCCAGGAGTTCTGGCACGTTGTTTTGAGGCTAAGT | 141
CATACCCAACCTTTTCACGTGACGTAAGATATTTGT | 5630
CTTTCCCGATCTTGCTGAGTGGGTGTAGCACATTTG | 68.2
AAATTACTAAGTTGTTGCGTGGGTGACGCCGTATGA | 77.5
CTTCTGTAAATTTGTCACATAACTTGACGCGCCCCG | 85.5

Block 2
Target: TAR DNA-binding protein 43, full length, His tag (TARDBP, Homo sapiens, UniProt Q13148, residues 1-414)
Method: RNA Bind-n-Seq
Molecule type: RNA
Medium: in vitro
Tested at: 20 nM
Notes: 6-mer, flanks averaged, single round
Added: 150 mM KCl
Baseline: input library
Reading: higher = stronger binding
Oligonucleotide | 6-mer enrichment (R)
UGUUCU | 0.596
AAAUGA | 0.688
GAGUAA | 0.899
CCAAUG | 0.734
AUCUAC | 0.541
UUCUUA | 0.565
ACCGAA | 0.676
CUUACA | 0.578

Other studies, line by line
Molecule | target or system | assay | system | setting | how to read | endpoint | value
ETT (Arabidopsis thaliana, UniProt O23661) | ARF8 699-811 (Arabidopsis thaliana, UniProt Q9FGV1) | two-hybrid | – | – | baseline: out of 4 tests, higher = firmer interaction | positive tests | 0
WSTIWRQLY | HLA class I histocompatibility antigen, A alpha chain, allele A*25:01 (Homo sapiens, UniProt P04439) | peptide-MHC binding | peptide | concentration not given | – | binding | inactive
